Measurements collected from several papers.
A part holds a random share of what one study measured.

Set 1 — method: RNA Bind-n-Seq; molecule type: RNA; matrix: in vitro; tested at: not given; relative to: input RNA pool; direction: higher = stronger binding
Target: RING finger protein unkempt homolog, zinc fingers 1-6, GST-SBP tag (UNK, Homo sapiens, UniProt Q9C0B0, residues 30-357)
UniProt Q9C0B0, sequence (30-357, looked up): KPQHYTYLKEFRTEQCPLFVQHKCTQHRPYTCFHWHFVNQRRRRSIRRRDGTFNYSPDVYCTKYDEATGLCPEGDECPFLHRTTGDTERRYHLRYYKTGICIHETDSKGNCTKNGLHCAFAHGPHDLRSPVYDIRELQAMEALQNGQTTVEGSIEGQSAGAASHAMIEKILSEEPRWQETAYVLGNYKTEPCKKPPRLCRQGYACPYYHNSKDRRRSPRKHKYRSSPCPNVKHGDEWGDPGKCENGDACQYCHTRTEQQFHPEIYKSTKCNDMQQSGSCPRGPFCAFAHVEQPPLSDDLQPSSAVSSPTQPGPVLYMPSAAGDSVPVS
Notes: RNA with constant flanks, human and mouse sites, ends assumed
All sequences stand within: GGGAGUUCUACAGUCCGACGAUC … CAACAGAGGAUUGAGCAUCA
Oligonucleotide	bound/input enrichment
CCAGGGCAACACAGAGACCCCGAGGAACCCAGGUUCCGGAGAACAAGAUCGUUGGAAUGCCAAGAUGCUCUCGAAACAGCAGCCCGAGUUGAGGGGCUUUCCCUGGAUAUCUCUGUGCAU	0.192 ratio
GCAGGGGUUUGUUUGUUUGCUUGCUUGUUUGUUUUUAGUUCUGCCAUAUGGAUUUCAGUAAUGGGUCCUCCCUUGACUUGCAGUUAAGCAUGAAACUUCUCAUUGGGUAGUUUCAAAACU	0.353 ratio
GAAAAUCUUCUUAAUUGGACAAGAGAUAGCCAAAACAAGCUUAUAUUUAUGGAGCGUAUAGAAAAAUAUGCACUUUUCAAAAACCCACAGAAUUAUCUUUUGGGGAAAAAAGAAACAGCU	3.77 ratio
CUGAGGGCUCCAUGCUGAAGGCUCCCAUUUUCAGUUCCCUCCUGCCCAGGACUGCAUUGUUUUCUAGCCCCGAGGUGGUGGCACGGGCCCUCCCUCCCAGCGCUCUGGGAGCCACGCCUA	0.247 ratio
UGAUGAGUAUUUACAUUAUGAAUGUAUAACCCAGACAUGAUUUGUAAAGCCGACAGUAUGUUUCUAUUACACAACACUUUUUGAUACAGCGUCUCUUGUCUUCACUGAUACUGGAGUCUC	0.22 ratio
UGCUCUUGUAGCCUUUGGUUUUUGUUAUUGUAGAGAACAGAUUCUUUAUACACUUUGUAAAAUUUACGCCAAACCCCAGCUCUCGAACUCUUAUUCUCCCUGUAGCCCUUGCACUGUUGC	0.919 ratio
CCUUCCCUUUGCCUUUUAAAUUGUGGUUAAAAAAAAAGAAAAAAAAAGGCACAUAAAGCUGAGCACCUUAACCAUUUUUUAAGCGUAUGGUAGUGUUGACUAUAUUUGCAUUGUUGCGCA	0.448 ratio
CAGAACUUACGGCCAUGCUGAAGUUGCAGUUUCAUUCAGAUGCUACCUAAAGUUUAUGUUACUAGAGUAAAAAGAUCUCACAGUGAGUUGGUUUGAUAUUUAUAUUGUGGUUCAUGUUUG	0.39 ratio

Set 2 — method: RNA Bind-n-Seq; molecule type: RNA; matrix: in vitro; tested at: 1 µM; notes: whole 134-nt RNA, ends assumed; together with: 150 mM KCl; relative to: input library; direction: higher = stronger binding
Target: Ras GTPase-activating protein-binding protein 1, C-terminal RGG region (G3BP1, Homo sapiens, UniProt Q13283)
UniProt Q13283, sequence (whole entry, looked up): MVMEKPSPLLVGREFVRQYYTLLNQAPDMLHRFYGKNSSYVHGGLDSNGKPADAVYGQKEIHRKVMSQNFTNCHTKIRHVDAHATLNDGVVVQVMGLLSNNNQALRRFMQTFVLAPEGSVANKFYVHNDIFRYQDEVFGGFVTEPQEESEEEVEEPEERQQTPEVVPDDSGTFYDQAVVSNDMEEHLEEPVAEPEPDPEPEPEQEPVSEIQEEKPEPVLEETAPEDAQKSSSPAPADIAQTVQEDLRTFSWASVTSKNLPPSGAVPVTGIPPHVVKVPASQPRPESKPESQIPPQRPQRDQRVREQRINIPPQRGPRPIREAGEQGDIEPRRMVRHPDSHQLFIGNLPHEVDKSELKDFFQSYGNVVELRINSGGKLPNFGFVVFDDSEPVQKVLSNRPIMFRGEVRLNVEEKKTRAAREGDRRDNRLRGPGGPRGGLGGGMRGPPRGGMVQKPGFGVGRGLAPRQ
All sequences stand within: GGGAGUUCUACAGUCCGACGAUC … UGGAAUUCUCGGGUGUCAAGG
Oligonucleotide	log2 enrichment
CCUGUGCUACACAUCGUAUGUACCGAAUCGGGGAAAGGGGAAAAAGGGGAAAAAAAGGGGAAAGUAUUAUGUUACGCCGUUCGGAUCUGC	0.0911
UAACUUUAGAGGAGGAUCUGAUGGAGAUGGCAGUGGACGUGGAUUUGGGGAUGGCUAUAAUGGGUAUGGAGGAGGACCUGGAGGUGGCAA	0.381
ACCAUGCAGGUGGGCAUCUUUGGGAAGUGGGGCAAGGGUGGGAUAGGGAGGGGGGUAACACUUUGGGAACAGGUGGUCCCAGGUCGUUUC	-0.92
AGUCCUGUGCUACACAUCGUAUGUACCGAAUCGGGGCCCCGGCCCCGGGCCCCGGGGAAAGUAUUAUGUUACGCCGUUCGGAUCUGCACU	-2.04
UGGGGUCUGCGUACGCCUGGAGUCCUUCCCCGCUGUGCUCAGCAUGGACCCUAUCCGGAGCUUCUGCGGGAAGCUGCGGUCUCUGGCCAG	-0.523
CUCAAGUCCUGUGCUACACAUCGUAUGUACCGAAUCGGGAGGGAAAGGGAGGGAAAGUAUUAUGUUACGCCGUUCGGAUCUGCACUUCCA	2.05
GUCCUGUGCUACACAUCGUAUGUACCGAAUCGGGUUUUUGGGGUUUUUGGUUUUUGGGAAAGUAUUAUGUUACGCCGUUCGGAUCUGCAC	-1
AGUCCUGUGCUACACAUCGUAUGUACCGAAUCGGGGUGGGGUUUUUUUGGGGAGGGGAAAGUAUUAUGUUACGCCGUUCGGAUCUGCACU	1.78

Set 3 — method: RNA Bind-n-Seq; molecule type: RNA; matrix: in vitro; tested at: 365 nM; relative to: no-protein control; direction: higher = stronger binding
Target: RNA binding protein fox-1 homolog 2, RRM domain, GST-SBP tag (RBFOX2, Homo sapiens, UniProt O43251-10, residues 100-194)
Notes: natural RNA segment, single round, ends assumed
All sequences stand within: GGGAGUUCUACAGUCCGACGAUC … UGGAAUUCUCGGGUGCCAA
Target sequence (chain): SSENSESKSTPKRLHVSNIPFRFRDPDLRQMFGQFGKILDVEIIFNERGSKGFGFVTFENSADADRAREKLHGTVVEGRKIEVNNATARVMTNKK
Oligonucleotide	RBNS enrichment (R)
AUUUUGAUACCAGAAGGGAAAGCUUCAUUCUCCUUGUUGUUGGUUGUUUUUUCCUUUGCUCUUUCCCCCUUCCAUCUCUGACUUAAGCAAAAGAAAAAGAUUACCCAAAA	0.472
AGAGAGCCCAGAACACCUGGGCAAGUAGGCGGACUGGCAGCCUGGCUCUGGGCCCUCGUCCACCGGGCCAAGUGGAGCCCCGCUUCAAGCUCUCUGUUCAGCUCCGCGUU	0.309
AGGAAAAAGCACAGCCUCGAAUGGAGGCAGCCUAAACUCUUGUCUGUCCUCUUCAUGGUGUCUCUUCCGUGUUUUGCUGAGCUGUUCUCAGGCACCCCCUCACUGCUCCC	0.456
UGGACUUUGAUUUAGGGAUCAUGUUUUGGCCUGGAAAAUAAGCAUUGGCCUGCGUGUUUAGAAGCUCCCUGAAAUCAGUUAGCAUCCUAAUACGAGUCAGAUGCUGCAGA	0.481
GAGACAUCUUGGCCUCCUAGGCUAAGUUUACUAAACCACACUGAAGCUAUAGUACCUUCCAGAUGGGCAAAAGUGUACACUACAGUUGAGGAGCUGAACCUUAUUAGGUU	0.241
ACGCCCACCCCCCACCCACCGCAAGCUUUGAGUGGGACACCAUUCUGAAUUUUUUUUCUGAAUUUUUUUUUAACAUCUCUUUCUCAUUAGAGAUCUGAAAACUCAUUAGA	0.879
GGUUCUAACCCUUUGCUGUACACAAGCAGACAGAAAUGCAUCUGUUACAUAAAUGAGAAAAAGCUAUUAUGCUGAUGGAGCAUGCUUUUUAAAUCCUUUAAAAACACUCA	0.957
CCUGGCCCCCAAGACUGCCUCUGUCAUGGUCACUAUUUAUUCUUGGUCCCUUUUUCUUUUUGUAAGAAACAGUCACAAGAAAACAACAACAACAACAAAAAACAACCAAU	0.478

Single results of other studies
SMILES	cell line	conditions	quantity	value
[H]/N=C(/N)N[C@H]1[C@H](O)[C@@H](O)[C@H](O[C@@H]2O[C@@H](C)[C@](O)(C=O)[C@H]2O[C@@H]2O[C@@H](CO)[C@H](O)[C@@H](O)[C@@H]2NC)[C@@H](N/C(N)=N\[H])[C@@H]1O	A-375	100 µM, 36 h	viability	109%

Repeated from above (set 1):
Oligonucleotide	bound/input enrichment
GCAGGGGUUUGUUUGUUUGCUUGCUUGUUUGUUUUUAGUUCUGCCAUAUGGAUUUCAGUAAUGGGUCCUCCCUUGACUUGCAGUUAAGCAUGAAACUUCUCAUUGGGUAGUUUCAAAACU	0.353 ratio
GAAAAUCUUCUUAAUUGGACAAGAGAUAGCCAAAACAAGCUUAUAUUUAUGGAGCGUAUAGAAAAAUAUGCACUUUUCAAAAACCCACAGAAUUAUCUUUUGGGGAAAAAAGAAACAGCU	3.77 ratio
CUGAGGGCUCCAUGCUGAAGGCUCCCAUUUUCAGUUCCCUCCUGCCCAGGACUGCAUUGUUUUCUAGCCCCGAGGUGGUGGCACGGGCCCUCCCUCCCAGCGCUCUGGGAGCCACGCCUA	0.247 ratio
